Measurements pooled from the literature.
Each numbered part is a random draw from the data of one study; scales do not carry over between parts.
Sequence of UniProt Q16659 (whole entry, looked up): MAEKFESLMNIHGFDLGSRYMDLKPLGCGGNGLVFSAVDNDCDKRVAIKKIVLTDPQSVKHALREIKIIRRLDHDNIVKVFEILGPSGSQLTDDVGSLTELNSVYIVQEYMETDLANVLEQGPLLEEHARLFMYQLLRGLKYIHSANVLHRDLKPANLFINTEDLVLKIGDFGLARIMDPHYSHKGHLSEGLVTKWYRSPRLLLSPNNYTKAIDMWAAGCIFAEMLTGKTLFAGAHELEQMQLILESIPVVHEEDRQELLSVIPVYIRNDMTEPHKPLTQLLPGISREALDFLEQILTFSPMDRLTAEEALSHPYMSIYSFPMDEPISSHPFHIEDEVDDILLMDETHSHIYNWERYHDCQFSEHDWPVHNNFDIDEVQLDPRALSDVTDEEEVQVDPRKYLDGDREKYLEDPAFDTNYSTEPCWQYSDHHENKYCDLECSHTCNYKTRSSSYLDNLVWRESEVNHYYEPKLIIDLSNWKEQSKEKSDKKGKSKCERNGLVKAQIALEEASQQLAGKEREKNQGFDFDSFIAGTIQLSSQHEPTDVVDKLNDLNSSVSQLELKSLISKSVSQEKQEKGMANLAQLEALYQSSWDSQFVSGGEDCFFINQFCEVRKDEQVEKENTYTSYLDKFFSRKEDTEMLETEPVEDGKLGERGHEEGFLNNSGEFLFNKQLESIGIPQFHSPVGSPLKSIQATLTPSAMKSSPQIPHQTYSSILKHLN
Sequence of UniProt P29597 (whole entry, looked up): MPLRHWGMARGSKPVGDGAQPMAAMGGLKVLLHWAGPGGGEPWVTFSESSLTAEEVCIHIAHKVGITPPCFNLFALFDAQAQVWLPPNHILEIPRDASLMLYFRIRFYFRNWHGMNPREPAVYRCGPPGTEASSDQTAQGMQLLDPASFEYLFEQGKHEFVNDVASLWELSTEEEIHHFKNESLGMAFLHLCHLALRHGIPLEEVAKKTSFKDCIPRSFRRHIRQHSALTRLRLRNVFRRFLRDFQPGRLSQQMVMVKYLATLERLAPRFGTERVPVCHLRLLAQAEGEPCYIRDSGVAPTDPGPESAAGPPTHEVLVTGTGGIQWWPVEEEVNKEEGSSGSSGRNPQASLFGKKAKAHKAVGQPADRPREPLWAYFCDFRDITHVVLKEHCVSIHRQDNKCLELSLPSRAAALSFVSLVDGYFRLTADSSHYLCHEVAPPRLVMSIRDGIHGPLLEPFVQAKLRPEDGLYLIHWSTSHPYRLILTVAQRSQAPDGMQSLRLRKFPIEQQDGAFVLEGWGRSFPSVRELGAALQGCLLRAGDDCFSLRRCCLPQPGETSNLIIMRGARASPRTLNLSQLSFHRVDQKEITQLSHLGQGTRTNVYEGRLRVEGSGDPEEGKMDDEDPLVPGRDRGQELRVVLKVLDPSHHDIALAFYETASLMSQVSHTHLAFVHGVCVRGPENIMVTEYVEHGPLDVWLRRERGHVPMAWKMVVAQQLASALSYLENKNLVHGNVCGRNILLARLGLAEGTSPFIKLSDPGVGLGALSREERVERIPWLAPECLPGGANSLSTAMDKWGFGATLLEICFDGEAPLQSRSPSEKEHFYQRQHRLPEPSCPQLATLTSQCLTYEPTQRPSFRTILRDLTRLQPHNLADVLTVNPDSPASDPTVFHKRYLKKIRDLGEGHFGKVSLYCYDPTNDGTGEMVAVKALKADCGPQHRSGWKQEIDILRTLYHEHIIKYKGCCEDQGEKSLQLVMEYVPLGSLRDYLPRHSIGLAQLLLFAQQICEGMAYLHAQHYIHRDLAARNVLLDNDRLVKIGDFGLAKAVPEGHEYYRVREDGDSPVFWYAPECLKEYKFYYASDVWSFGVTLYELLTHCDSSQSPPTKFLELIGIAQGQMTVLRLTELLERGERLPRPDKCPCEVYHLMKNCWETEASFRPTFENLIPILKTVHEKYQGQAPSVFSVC
Sequence of UniProt Q14680 (whole entry, looked up): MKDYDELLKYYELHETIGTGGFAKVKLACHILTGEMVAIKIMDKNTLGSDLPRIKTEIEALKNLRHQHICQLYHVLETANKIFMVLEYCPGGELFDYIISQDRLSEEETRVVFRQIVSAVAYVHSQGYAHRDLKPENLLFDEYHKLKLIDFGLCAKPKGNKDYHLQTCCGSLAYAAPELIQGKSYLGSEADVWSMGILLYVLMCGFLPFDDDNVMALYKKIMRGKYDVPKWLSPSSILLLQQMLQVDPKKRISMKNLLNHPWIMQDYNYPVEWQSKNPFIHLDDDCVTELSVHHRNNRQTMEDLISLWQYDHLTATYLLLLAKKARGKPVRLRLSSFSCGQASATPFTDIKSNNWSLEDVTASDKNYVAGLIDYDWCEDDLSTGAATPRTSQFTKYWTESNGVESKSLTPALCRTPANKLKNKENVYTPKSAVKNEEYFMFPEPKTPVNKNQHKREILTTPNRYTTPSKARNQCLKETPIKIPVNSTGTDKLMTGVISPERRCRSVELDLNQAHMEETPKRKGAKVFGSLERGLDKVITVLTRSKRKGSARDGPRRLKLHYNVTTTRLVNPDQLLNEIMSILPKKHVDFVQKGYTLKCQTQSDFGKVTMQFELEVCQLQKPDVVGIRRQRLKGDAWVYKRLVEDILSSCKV
Sequence of UniProt P57059 (whole entry, looked up): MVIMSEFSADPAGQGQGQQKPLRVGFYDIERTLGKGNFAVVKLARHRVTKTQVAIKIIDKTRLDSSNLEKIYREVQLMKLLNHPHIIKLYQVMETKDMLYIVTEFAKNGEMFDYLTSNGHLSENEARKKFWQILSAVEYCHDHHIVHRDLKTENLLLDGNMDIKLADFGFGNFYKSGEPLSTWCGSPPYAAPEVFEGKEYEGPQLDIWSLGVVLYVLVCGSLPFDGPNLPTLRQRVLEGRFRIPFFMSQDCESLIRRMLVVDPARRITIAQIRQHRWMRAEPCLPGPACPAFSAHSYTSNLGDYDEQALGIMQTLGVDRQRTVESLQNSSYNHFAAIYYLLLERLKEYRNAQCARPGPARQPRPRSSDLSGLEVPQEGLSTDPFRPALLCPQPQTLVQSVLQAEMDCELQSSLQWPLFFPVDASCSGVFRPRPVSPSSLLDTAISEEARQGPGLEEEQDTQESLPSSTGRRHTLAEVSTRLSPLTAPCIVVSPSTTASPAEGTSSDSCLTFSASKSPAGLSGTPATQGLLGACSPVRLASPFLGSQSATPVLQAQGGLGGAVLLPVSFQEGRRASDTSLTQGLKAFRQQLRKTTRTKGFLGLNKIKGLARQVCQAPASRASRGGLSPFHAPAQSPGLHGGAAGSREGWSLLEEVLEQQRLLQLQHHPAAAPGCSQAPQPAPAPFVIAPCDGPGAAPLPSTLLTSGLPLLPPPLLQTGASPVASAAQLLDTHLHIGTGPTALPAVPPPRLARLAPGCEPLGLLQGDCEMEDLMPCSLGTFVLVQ
Sequence of UniProt P23458 (whole entry, looked up): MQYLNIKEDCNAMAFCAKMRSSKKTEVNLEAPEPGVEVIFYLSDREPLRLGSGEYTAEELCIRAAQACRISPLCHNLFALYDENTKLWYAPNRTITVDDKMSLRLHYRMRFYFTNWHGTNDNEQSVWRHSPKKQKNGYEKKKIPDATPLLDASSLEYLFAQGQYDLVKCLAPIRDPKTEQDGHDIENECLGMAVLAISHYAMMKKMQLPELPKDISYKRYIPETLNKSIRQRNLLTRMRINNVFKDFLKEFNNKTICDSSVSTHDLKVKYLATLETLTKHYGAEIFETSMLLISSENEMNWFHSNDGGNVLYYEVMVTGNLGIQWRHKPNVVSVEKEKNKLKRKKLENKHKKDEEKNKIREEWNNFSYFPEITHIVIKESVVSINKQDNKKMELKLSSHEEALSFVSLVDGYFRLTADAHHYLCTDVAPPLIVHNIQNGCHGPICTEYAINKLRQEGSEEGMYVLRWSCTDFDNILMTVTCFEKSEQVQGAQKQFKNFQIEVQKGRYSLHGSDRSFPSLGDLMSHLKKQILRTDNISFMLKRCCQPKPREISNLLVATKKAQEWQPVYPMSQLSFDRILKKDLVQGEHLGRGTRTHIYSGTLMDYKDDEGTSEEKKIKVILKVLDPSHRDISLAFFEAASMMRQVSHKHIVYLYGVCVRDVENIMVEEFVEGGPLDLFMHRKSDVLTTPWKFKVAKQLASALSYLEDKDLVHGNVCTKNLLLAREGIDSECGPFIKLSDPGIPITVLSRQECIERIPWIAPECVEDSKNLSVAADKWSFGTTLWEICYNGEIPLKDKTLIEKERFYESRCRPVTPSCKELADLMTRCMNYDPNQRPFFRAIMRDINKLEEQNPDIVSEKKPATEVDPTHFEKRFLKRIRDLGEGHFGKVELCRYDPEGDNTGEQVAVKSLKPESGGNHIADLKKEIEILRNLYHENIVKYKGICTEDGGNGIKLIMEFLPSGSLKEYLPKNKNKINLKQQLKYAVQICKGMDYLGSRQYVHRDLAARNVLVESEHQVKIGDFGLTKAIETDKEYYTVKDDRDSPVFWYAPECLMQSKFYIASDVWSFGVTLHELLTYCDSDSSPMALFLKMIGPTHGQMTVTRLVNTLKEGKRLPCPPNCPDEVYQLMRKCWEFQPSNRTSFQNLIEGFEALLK

Set 1 — tested at: 0.1 µM; measurement: remaining binding
SMILES: Nc1c(C(=O)NCc2ccc(C(=O)NCCCC3CCCCC3)cc2)cnn1-c1ccccc1
target = CIT (Homo sapiens, UniProt O14578); assay = cell-free assay, competition with immobilised ligand; result = 100%
target = PHKG2 (Homo sapiens, UniProt P15735); assay = cell-free assay, competition with immobilised ligand; result = 100%
target = FER (Homo sapiens, UniProt P16591); assay = cell-free assay, competition with immobilised ligand; result = 90%
target = MAP4K2 (Homo sapiens, UniProt Q12851); assay = cell-free assay, competition with immobilised ligand; result = 94%
target = PRKAA2 (Homo sapiens, UniProt P54646); assay = cell-free assay, competition with immobilised ligand; result = 100%
target = MELK (Homo sapiens, UniProt Q14680); assay = cell-free assay, competition with immobilised ligand; result = 92%
target = DMPK (Homo sapiens, UniProt Q09013); assay = cell-free assay, competition with immobilised ligand; result = 77%
target = Tyrosine-protein kinase ABL1, phosphorylated (ABL1, Homo sapiens, UniProt P00519, F317I); assay = binding; result = 100%
target = Tyrosine-protein kinase JAK1, JH2 (JAK1, Homo sapiens, UniProt P23458); assay = cell-free assay, competition with immobilised ligand; result = 100%
target = Non-receptor tyrosine-protein kinase TYK2, JH2 (TYK2, Homo sapiens, UniProt P29597); assay = cell-free assay, competition with immobilised ligand; result = 88%
target = SIK1 (Homo sapiens, UniProt P57059); assay = competition binding; result = 100%
target = ERBB2 (Homo sapiens, UniProt P04626); assay = cell-free assay, competition with immobilised ligand; result = 100%
target = MAPK6 (Homo sapiens, UniProt Q16659); assay = cell-free assay, competition with immobilised ligand; result = 92%
target = STK17B (Homo sapiens, UniProt O94768); assay = cell-free assay, competition with immobilised ligand; result = 94%
target = MAP2K7 (Homo sapiens, UniProt O14733); assay = cell-free assay, competition with immobilised ligand; result = 99%
target = Aurora kinase C (AURKC, Homo sapiens, UniProt Q9UQB9); assay = cell-free assay, competition with immobilised ligand; result = 100%
target = CDKL1 (Homo sapiens, UniProt Q00532); assay = cell-free assay, competition with immobilised ligand; result = 100%
target = ROCK2 (Homo sapiens, UniProt O75116); assay = cell-free assay, competition with immobilised ligand; result = 100%
target = PNCK (Homo sapiens, UniProt Q6P2M8); assay = cell-free assay, competition with immobilised ligand; result = 100%
target = GRK3 (Homo sapiens, UniProt P35626); assay = cell-free assay, competition with immobilised ligand; result = 100%

Set 2 — effect on: enzyme activity; action: inhibitor; tested at: 0.5 µM; relative to: control; measurement: remaining activity
Target: Tyrosine-protein kinase Fyn (FYN, Homo sapiens, UniProt P06241)
Sequence of UniProt P06241 (whole entry, looked up): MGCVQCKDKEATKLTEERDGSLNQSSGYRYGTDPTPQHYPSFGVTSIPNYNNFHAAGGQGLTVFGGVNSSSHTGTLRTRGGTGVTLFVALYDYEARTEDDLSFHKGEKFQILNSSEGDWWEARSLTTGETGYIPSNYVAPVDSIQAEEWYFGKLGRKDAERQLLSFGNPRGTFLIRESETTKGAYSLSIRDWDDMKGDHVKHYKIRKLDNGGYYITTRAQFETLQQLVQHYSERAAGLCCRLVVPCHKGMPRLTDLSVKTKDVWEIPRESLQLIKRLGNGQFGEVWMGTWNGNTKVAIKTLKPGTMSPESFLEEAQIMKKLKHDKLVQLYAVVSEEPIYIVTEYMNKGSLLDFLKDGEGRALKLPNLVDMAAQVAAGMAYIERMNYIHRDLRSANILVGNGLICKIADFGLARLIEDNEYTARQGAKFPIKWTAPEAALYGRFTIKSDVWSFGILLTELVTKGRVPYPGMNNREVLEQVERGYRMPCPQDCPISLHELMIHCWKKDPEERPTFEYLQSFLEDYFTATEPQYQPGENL
Compound = COc1cc2nccc(Oc3ccc(NC(=S)NC(=O)c4ccccc4C)cc3)c2cc1OC; result = 77.4%
Compound = CCOC(=O)c1c(C)[nH]c(/C=C2\C(=O)Nc3ccccc32)c1C; result = 97.3%
Compound = CC(C)[C@H](CO)Nc1nc(Nc2cc(N)cc(Cl)c2)c2ncn(C(C)C)c2n1; result = 18.9%
Compound = Oc1ccc(-c2nc(-c3ccncc3)c(-c3ccc(F)cc3)[nH]2)cc1; result = 87.5%
Compound = O=S(=O)(c1cccc2cnccc12)N1CCCNCC1; result = 106%
Compound = O=C1NC(=O)C(c2cn(CCCn3ccnc3)c3ccccc23)=C1Nc1ccccc1; result = 102%
Compound = COc1ccc(CNC(=O)Nc2ncc([N+](=O)[O-])s2)cc1; result = 102%
Compound = CNC(=O)c1cc(Oc2ccc(NC(=O)Nc3ccc(Cl)c(C(F)(F)F)c3)cc2)ccn1; result = 91.6%
Compound = COc1cc2ncnc(Nc3ccc(Oc4ccccc4)cc3)c2cc1OC; result = 26.9%
Compound = Cc1nc(-c2ccccc2)c(-c2ccncc2)o1; result = 99.8%
Compound = N#CC(C#N)=C(N)/C(C#N)=C/c1ccc(O)cc1; result = 98.4%
Compound = COc1ccc(OC)c2c(=S)c3ccccc3[nH]c12; result = 101%
Compound = NCCNc1ncc(C(N)=O)c(Nc2cccc(C(F)(F)F)c2)n1; result = 91.6%
Compound = OCC(O)CCON=C1C(c2c(O)[nH]c3ccccc23)=Nc2ccccc21 (stereo not drawn); result = 13%

Set 3 — method: RNA Bind-n-Seq; form: RNA; medium: in vitro; tested at: 20 nM; notes: 6-mer, flanks averaged, single round; with: 150 mM LiCl; relative to: input library; direction: higher = stronger binding; measurement: 6-mer enrichment (R)
Target: TAR DNA-binding protein 43, full length, His tag (TARDBP, Homo sapiens, UniProt Q13148, residues 1-414)
Sequence = GUAGAC; result = 1
Sequence = CACCGU; result = 0.911
Sequence = UUGUAC; result = 0.936
Sequence = AAAUCC; result = 0.837
Sequence = UUUCGG; result = 0.981
Sequence = GCCCGC; result = 1
Sequence = AAGCUU; result = 0.847
Sequence = UGGUGA; result = 1.22

Further values, each from its own experiment — method: cross-linking MS
Molecule = GART (Homo sapiens, UniProt P22102); partner = HNRNPU (Homo sapiens, UniProt Q00839); setting = hits only; measurement = interaction screen; result = cross-linked
Molecule = SF3B1 (Homo sapiens, UniProt O75533); partner = SF3B6 (Homo sapiens, UniProt Q9Y3B4); system = cell fractions; setting = with: DMTMM; measurement = cross-linked residues; result = K430 to E65
Molecule = PFDN5 (Homo sapiens, UniProt Q99471); partner = BAZ2A (Homo sapiens, UniProt Q9UIF9); system = cell fractions; setting = with: DSSO; measurement = cross-linked residues; result = K47 to T682

Repeated from above (set 1):
target = DMPK (Homo sapiens, UniProt Q09013); assay = cell-free assay, competition with immobilised ligand; result = 77%
target = Aurora kinase C (AURKC, Homo sapiens, UniProt Q9UQB9); assay = cell-free assay, competition with immobilised ligand; result = 100%
target = ROCK2 (Homo sapiens, UniProt O75116); assay = cell-free assay, competition with immobilised ligand; result = 100%
target = MAP4K2 (Homo sapiens, UniProt Q12851); assay = cell-free assay, competition with immobilised ligand; result = 94%
